# Results from different studies.
# A part holds a random share of what one study measured.

# Series 1 — method: RNA Bind-n-Seq; form: RNA; sample: in vitro; tested at: 365 nM; relative to: no-protein control; direction: higher = stronger binding
# Target: RNA binding protein fox-1 homolog 2, RRM domain, GST-SBP tag (RBFOX2, Homo sapiens, UniProt O43251-10, residues 100-194)
# Setting: natural RNA segment, single round, ends assumed
# All sequences stand within: GGGAGUUCUACAGUCCGACGAUC … UGGAAUUCUCGGGUGCCAA
# Construct (chain): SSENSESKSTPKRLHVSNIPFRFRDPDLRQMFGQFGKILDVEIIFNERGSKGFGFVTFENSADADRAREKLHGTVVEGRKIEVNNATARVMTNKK
Oligonucleotide,RBNS enrichment (R)
AAGAAGCGAAUUUCUGUGAAGAAGAAGCAAGAACAACCCUGACCCCUGUCCCCAACUCCAUUAUUUAUUUUGGAGCUGCCCCGCCUGGGUGGCAGGACCCCUGGGCCCUG,0.174
UUUUUCUGCCAAAAGGAGCCUACAUUUAUAAUGCACUUAUUGAAUUCAUUAGGGGCGAAUAUAGGAAAAGAGGAUUCCAGGAGGUAGUCACCCCAAACAUCUUCAACAGC,0.783
UUAUAGGCAAAGUAUCAAAUUGUCUUCUUAAUAUGAUAAACUGUGCUUUAUCAUUCUGAAAACUCAGGAUACAGCUUAUUCAUAGCAUUGUGGGUCUCUCCAGUAAGAAA,0.313
AUGAGACGGCUUGUGUGUGAAAAGAUUUUGGAAAUUACACAGAUGUGGGCUUGUUAUUGGGAUGAAGACUGCUGGAAGGGACUCCUUGCUGUUUAUCUACUGCUUUGAGC,1.48
CACAAGGAUAAUGCUGCAUUUUUCUGUCAGAGUCACACAUGUUUUUCUGGAGAGGUUAUUUCUGCAUGGAAACUCAACUUCUUGGAUUAGCUAUCUUGAGUGAAAGUCCU,1.39
GUCAGAAGAGCCCUCCUGGUUUUUUAGCGAUUUGAACCCACUAGACAAUGUGUGCACAUAGGGAAUGUCCUUUAAGAAUCAUGGAUCUCUUGUAGGCUCUCUGUGUUCCA,0.651
AGGGUGCCCAGGUCCUCGGAGCUUUGGCUUGGCAUCUUGGGUUCAUUUGAUUUUUUUUUUUAAAGAGUGUAGUAUUGAGAUUUUAGAGUUCUCGUUUUCAUGAUUCUUGU,1.07
GGAUGCCCACCCCUGCUGCCGCCACUGGCUGUGCCUCCCCCGCCACCUGUGUGUUCUUUUGAUACAUUUAUCUUCUGUUUUUCUCAAAUAAAGUUCAAAGCAACCACCUG,0.343
UGGGCCCAUGGGGCUGGACAGGAUGAGGUCACCAUUGGGCCUGAGGGCCAGGGGUCUCCAGCAUGACUUGUUUGCUCUCCCUCCCCCACCCUCACUCCUACCUCCCAUAG,5.76
UCAGUCCAGUUUCCAUGACGUACCCCCUUCAGAAGUUUCUGACAUUGGUUUGAGGUUUUCUGACACUAAUUAAAAGAAAAAUUAGAUCAGGGUGUGGUAGCAAAUGCCUA,0.337
GGUCUAGAACCCGGCUCUGGGGCACUGGCCUAGUUCCCGACUUGUUUCUCAGGUGUGAAUCAACUUCUUGGGCCUUGGCUCUGAGUUGGAAAAGGUUUUAGAAAAAGUGA,0.262
UGGCUAACCGCCUCUUAGCCCACGGUUACCCAGUCAUUUGUCUCAGUUAACAUUUAAAGGAGUUUUUGUGAGACAAAUUCUCCAUUGUGAGAUCUCUGAAGUGGGAUUGU,0.35

# Series 2 — method: protein binding microarray; form: double-stranded DNA, one strand shown; sample: in vitro; tested at: not given; relative to: not given; direction: higher = stronger binding
# Target: Histone acetyltransferase KAT6A, winged helix 2, GST fusion (KAT6A, Homo sapiens, UniProt Q92794, residues 85-181)
# Setting: 8-mer, flanks averaged, mean of 2 arrays, mostly near background
# Residues (chain): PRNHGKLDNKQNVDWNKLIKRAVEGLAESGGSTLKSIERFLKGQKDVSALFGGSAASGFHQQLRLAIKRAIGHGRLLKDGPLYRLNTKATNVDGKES
Oligonucleotide,E-score
CAGATTAG,-0.145
CTCGTGAA,-0.0487
GTCGTGAA,-0.0561
AAGCACGC,0.0563
AGCCTACA,-0.0063
TGACGGAA,-0.0705
ACCAAGGG,0.0723
CCCCACTC,-0.081
ACTTAGAT,0.0192
GGCGACCA,0.0495
CCGTGAAA,-0.043
GCTATTAA,0.155
CATTAATG,0.0247
CCGAGCCA,0.0131
CCTCTTAG,0.169
AAGAGTCA,-0.119

# Series 3 — method: protein-binding microarray; form: double-stranded DNA, one strand shown; sample: in vitro; tested at: 250 nM; setting: 60-bp whole probe; added: salmon DNA 0.4 mg/ml; relative to: random background probes; direction: higher = stronger binding; all sequences stand within: GCCTAGCAC … GTCTTGATTCGCTTGACGCTGCTG
# Target: Interferon regulatory factor 5, full length, phosphomimetic (IRF5, Homo sapiens, UniProt Q13568-2, residues 1-514, K96S/S451D/S453D/S456D/S462D)
Oligonucleotide,log fluorescence
TCATATTTACCTCTCACACTGTGCTAG,0.433 z-score
TTAAGTATCCTACTGCTTTAGTGCTAG,0.237 z-score
GACGATTTGAGTTTCGAGACGTGCTAG,4.68 z-score
TTAAAACTGAGACTGGATTAGTGCTAG,-0.126 z-score
TCACCAATCATTTTTGCACTGTGCTAG,0.718 z-score
TAGGTTTCACTTTCCAAAACGTGCTAG,7.51 z-score
TGAGAACTGAGACTGGATTAGTGCTAG,-0.114 z-score
CACGGTATCGACTTTCGGGACGTGCTA,6.53 z-score
TTAGGACTGGGTCTCGTTTAGTGCTAG,-0.354 z-score
GACTGACTGGGGTATCGGGACGTGCTA,0.208 z-score
TTAGGTATACTTATCCTTTAGTGCTAG,0.0539 z-score
GACGATCTCATTATCGAGACGTGCTAG,1.39 z-score
TCATTTTTTTAATTGAAACTGTGCTAG,1.31 z-score

# Series 4 — method: RNA Bind-n-Seq; form: RNA; sample: in vitro; tested at: 200 nM; setting: whole 134-nt RNA, ends assumed; added: 150 mM LiCl; relative to: input library; direction: higher = stronger binding; each molecule: 7-deaza-guanosine replaces G
# Target: Ras GTPase-activating protein-binding protein 1, full length (G3BP1, Homo sapiens, UniProt Q13283)
# UniProt Q13283, sequence (whole entry, looked up): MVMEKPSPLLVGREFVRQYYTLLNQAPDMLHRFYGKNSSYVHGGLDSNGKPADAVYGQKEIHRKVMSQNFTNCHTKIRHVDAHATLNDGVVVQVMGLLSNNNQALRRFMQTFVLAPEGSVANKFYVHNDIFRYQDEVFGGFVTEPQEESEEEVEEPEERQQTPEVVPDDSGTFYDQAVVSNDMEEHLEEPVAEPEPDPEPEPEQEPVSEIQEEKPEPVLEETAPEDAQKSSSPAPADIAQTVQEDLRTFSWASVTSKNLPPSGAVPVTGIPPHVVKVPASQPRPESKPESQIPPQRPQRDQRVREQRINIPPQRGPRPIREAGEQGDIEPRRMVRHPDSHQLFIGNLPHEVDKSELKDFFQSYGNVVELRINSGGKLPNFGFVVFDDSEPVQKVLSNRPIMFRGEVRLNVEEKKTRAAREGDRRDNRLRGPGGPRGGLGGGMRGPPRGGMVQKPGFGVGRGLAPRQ
# All sequences stand within: GGGAGUUCUACAGUCCGACGAUC … UGGAAUUCUCGGGUGUCAAGG
Oligonucleotide,log2 enrichment
UGGCCCUGGUGGCAUGGGGGGAGGAAGAGGUGGCCUCAUGGAUCGUGGUGGUCCCGGUGGAAUGUUCAGAGGUGGCCGUGGUGGAGACAG,0.478
CAAGUCCUGUGCUACACAUCGUAUGUACCGAAUCGGUUUUGGUUUUGGUUUUGGGAAAGUAUUAUGUUACGCCGUUCGGAUCUGCACUUC,-0.956
UGGCCCUGGUGGCAUGCGGGGAGGAAGAGGUGGCCUCAUGGAUCGUGGUGGUCCCGGUGGAAUGUUCAGUGGUGGCCGUGGUGGAGACAG,0.14
CUCAAGUCCUGUGCUACACAUCGUAUGUACCGAAUCGGAAAGGUUUUUGGUGGAAAGUAUUAUGUUACGCCGUUCGGAUCUGCACUUCCA,0.245
CUCAAGUCCUGUGCUACACAUCGUAUGUACCGAAUCGGAAGGAAGGGAAGGGGAAAGUAUUAUGUUACGCCGUUCGGAUCUGCACUUCCA,0.00842
UGGGAAGUGGAUUUUGUUUAUUUUUUUAGCUCAUUUCCAGGGGUGGGAAUUUUUUUUUAAUAUGUGUCAUGAAUAAAGUUGUUUUUGAAA,-0.517
ACCAUGCAGGUGGGCACCUUUGGGAAGUGGGGCAAGGGGGGGAUAGGGAGGGGGGUAACACUUUGGGAACAGGUGGUCCCAGGUCGUUUC,0.0922
AGUCCUGUGCUACACAUCGUAUGUACCGAAUCGGGUUUUUGGUUUUUGGGUUUUUGGGAAAGUAUUAUGUUACGCCGUUCGGAUCUGCAC,-0.251
AGUCCUGUGCUACACAUCGUAUGUACCGAAUCGGGUUUUUGGGUUUUUGGUUUUUGGGAAAGUAUUAUGUUACGCCGUUCGGAUCUGCAC,-0.338
GUCCUGUGCUACACAUCGUAUGUACCGAAUCGGGUUUGGGAAAAAAAGGGAAAAAGGGAAAGUAUUAUGUUACGCCGUUCGGAUCUGCAC,-0.333
AGUCCUGUGCUACACAUCGUAUGUACCGAAUCGGGUUUGGGUUUGGGAAAAAAAGGGAAAGUAUUAUGUUACGCCGUUCGGAUCUGCACU,-1.15

# For quick reference, copied from above (series 3):
Oligonucleotide,log fluorescence
TTAAAACTGAGACTGGATTAGTGCTAG,-0.126 z-score
TCACCAATCATTTTTGCACTGTGCTAG,0.718 z-score
TAGGTTTCACTTTCCAAAACGTGCTAG,7.51 z-score
TGAGAACTGAGACTGGATTAGTGCTAG,-0.114 z-score
